Experimental data of several laboratories.
Compare with care: the assays were run in different laboratories. ± gives the spread as reported.
MED23 with ELF3: Mediator of RNA polymerase II transcription subunit 23, with ELF3 (MED23, Homo sapiens, UniProt Q9ULK4)
GPR35: G-protein coupled receptor 35 (GPR35, Homo sapiens, UniProt Q9HC97)
Sequence of UniProt Q9HC97 (whole entry, looked up): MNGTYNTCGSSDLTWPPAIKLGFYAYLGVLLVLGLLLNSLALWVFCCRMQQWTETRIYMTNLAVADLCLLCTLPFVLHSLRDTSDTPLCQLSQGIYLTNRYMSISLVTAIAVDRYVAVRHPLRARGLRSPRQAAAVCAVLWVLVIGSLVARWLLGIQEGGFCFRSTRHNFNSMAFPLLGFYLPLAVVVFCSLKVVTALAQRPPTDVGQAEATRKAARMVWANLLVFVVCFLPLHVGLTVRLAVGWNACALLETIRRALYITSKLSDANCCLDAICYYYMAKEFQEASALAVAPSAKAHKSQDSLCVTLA
GRM2: Metabotropic glutamate receptor 2 (GRM2, Homo sapiens, UniProt Q14416)
Sequence of UniProt Q14416 (whole entry, looked up): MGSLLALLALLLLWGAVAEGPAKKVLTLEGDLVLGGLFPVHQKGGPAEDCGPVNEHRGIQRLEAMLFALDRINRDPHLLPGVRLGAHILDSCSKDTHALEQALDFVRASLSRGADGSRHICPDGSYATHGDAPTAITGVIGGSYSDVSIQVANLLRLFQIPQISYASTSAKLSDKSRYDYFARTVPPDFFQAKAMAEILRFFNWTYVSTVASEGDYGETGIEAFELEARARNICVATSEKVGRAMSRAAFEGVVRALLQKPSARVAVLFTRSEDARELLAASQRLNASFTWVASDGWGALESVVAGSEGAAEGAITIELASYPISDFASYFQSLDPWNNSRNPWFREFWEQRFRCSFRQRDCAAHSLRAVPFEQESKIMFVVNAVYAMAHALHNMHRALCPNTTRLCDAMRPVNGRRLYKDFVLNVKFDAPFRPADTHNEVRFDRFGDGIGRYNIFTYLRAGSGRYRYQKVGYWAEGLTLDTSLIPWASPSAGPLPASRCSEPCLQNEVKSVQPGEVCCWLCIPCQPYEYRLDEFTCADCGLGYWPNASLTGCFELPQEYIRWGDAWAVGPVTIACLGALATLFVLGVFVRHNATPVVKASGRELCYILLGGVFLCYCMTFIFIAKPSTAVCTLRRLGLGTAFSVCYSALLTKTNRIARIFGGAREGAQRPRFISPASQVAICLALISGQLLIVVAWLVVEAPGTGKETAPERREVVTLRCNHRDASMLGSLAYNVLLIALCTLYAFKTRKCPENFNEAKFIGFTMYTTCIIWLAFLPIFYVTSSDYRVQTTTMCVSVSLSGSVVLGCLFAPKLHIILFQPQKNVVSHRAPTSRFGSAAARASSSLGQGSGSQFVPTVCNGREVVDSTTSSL
Sequence of UniProt Q00526 (whole entry, looked up): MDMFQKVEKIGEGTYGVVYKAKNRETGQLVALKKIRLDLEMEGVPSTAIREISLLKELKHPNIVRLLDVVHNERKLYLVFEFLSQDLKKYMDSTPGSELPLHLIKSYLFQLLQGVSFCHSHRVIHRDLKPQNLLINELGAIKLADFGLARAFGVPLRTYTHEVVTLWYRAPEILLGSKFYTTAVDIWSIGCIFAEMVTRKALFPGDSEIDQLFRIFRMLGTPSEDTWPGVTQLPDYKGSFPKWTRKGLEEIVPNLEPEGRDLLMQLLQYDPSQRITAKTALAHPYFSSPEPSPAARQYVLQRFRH

Compound	target	test	system	setting	scale	quantity	result
O=C1Nc2ccc(S(=O)(=O)Nc3ccccc3)cc2C1=C1CCCC1	Cyclin-dependent kinase 3 (CDK3, Homo sapiens, UniProt Q00526)	kinase activity, inhibitor, kinase panel profiling	–	concentration not given	–	inhibition	33%
O=C(C=Cc1ccc(Cl)cc1)c1cccc(O)c1	MED23 with ELF3	SEAP reporter gene, inhibitor	–	10 µM, 12 h	–	inhibition	80%
O=C(O)Cc1cc(O)ccc1O	GPR35	β-arrestin translocation, agonist, Tango reporter	U2OS GPR35-bla	–	–	EC50	inactive
FC(F)(F)c1c(-c2ccc3c(ccn3-c3cccnc3)c2)ccn2c(CC3CC3)nnc12	GRM2	GTPγS binding, positive allosteric modulator	–	with: EC20 glutamate	relative to: control glutamate response	Emax	424%
CN1CCN(c2nn3c(-c4ccc(F)cc4)nnc3c3ccccc23)CC1	iron(III)	UV-Vis titration	–	stoichiometry 1	–	binding constant	< 10 M⁻¹
N#Cc1c(-c2ccc(OCC3CC3)c(Cl)c2)ccn2c(CC(F)(F)F)cnc12	GRM2	GTPγS binding, positive allosteric modulator	–	with: EC20 glutamate	relative to: control glutamate response	Emax	209%
COc1ccc(C(=O)Nc2cc(-c3ccccc3)n[nH]2)cc1	crk3, with CYC6 (Leishmania mexicana, UniProt O15851)	IMAP fluorescence polarisation	–	30 µM, with L. major CYC6	–	inhibition	55%
CCCCn1ccn2c(-c3ccc(Oc4ccnc(C)c4)c(F)c3)c(C)nc2c1=O	GRM2	G protein activation, positive allosteric modulator	–	with: glutamate at EC20	relative to: glutamate response	Emax	277%
O=C(O)/C(O)=C/c1ccc(O)cc1	GPR35	dynamic mass redistribution, agonist	HT-29	1000 µM	–	agonist activity	inactive
COc1ccc(C=CC(=O)c2cccc(O)c2)c2ccccc12	MED23 with ELF3	SEAP reporter gene, inhibitor	–	10 µM, 12 h	–	inhibition	70%
C(=N\Nc1nnc(N/N=C/c2ccco2)c2ccccc12)/c1ccco1	iron(III)	UV-Vis titration	–	stoichiometry 2	–	binding constant	1.51e+10 M⁻²
O=C(C=Cc1ccc(O)cc1)c1cccc(O)c1	MED23 with ELF3	SEAP reporter gene, inhibitor	–	10 µM, 12 h	–	inhibition	60%
Cc1ccc(Oc2ccc(-c3ccn4c(CC5CC5)nnc4c3C(F)(F)F)cc2F)c(C)n1	GRM2	GTPγS binding, positive allosteric modulator	–	with: EC20 glutamate	relative to: control glutamate response	Emax	362 ± 84%
